Assay results pooled from the literature.
Each line is one published result; not all experiments were run side by side. ± marks the error that the study gave.

| Substance | organism | assay | system | conditions | MIC |
| --- | --- | --- | --- | --- | --- |
| Cc1cc(C)n(C(N)=S)n1.Cc1ccc(C(C)C)cc1.[Cl][Ru][Cl] | Proteus vulgaris | broth microdilution | ATCC 8427 | 24 to 48 h, 37 °C | > 1000 µg/mL |
| RXRRXRRXRRXRXB (PNA conjugate) | Streptococcus pyogenes | broth microdilution | peptide | 0.02% acetic acid, 0.4% BSA | 125 µM |
| C=C(C)[C@@H]1CC[C@]2(C)CC[C@]3(C)[C@H](CC[C@@H]4[C@@]5(C)CCC(=O)C(C)(C)[C@@H]5CC[C@]43C)[C@@H]12 | Nakaseomyces glabratus | broth microdilution | clinical isolate | 48 h, 37 °C | 500 µg/mL |
| CC1(C)S[C@@H]2[C@H](NC(=O)[C@H](N)c3ccccc3)C(=O)N2[C@H]1C(=O)O | Porphyromonas gingivalis | serial dilution | ATCC 33277 | 24 h, 37 °C | 7.5 ± 0.3 µg/mL |
| CC1NC(=O)C(C(=O)NC(C(=O)NC2C(=O)N3C2SC(C)(C)C3C(=O)O)c2ccccc2)=C1O (stereo not drawn) | Escherichia coli | broth microdilution | BW25113, Mueller-Hinton broth | together with: CCCP 50 µg/mL | 12.5 µg/mL |
| GACATACTCT | Salmonella enterica Typhimurium | bacterial growth, broth microdilution | peptide, SL1344, MHB | 24 h, 37 °C | 5 µM |
| CC1(C)SC2C(NC(=O)C(NC(=O)C3=C(O)C(Cc4ccsc4)NC3=O)c3ccccc3)C(=O)N2C1C(=O)O (stereo not drawn) | Escherichia coli | broth microdilution | BW25113, Mueller-Hinton broth | together with: 2,2'-bipyridyl 30 µg/mL | 25 µg/mL |
| CC1(C)CC[C@]2(C(=O)O)CC[C@]3(C)C(=CC[C@@H]4[C@@]5(C)CC[C@H](O)C(C)(C)[C@@H]5CC[C@]43C)[C@@H]2C1 | Nakaseomyces glabratus | broth microdilution | clinical isolate | 48 h, 37 °C | 500 µg/mL |
| CC1(C)SC2C(NC(=O)C(NC(=O)C3=C(O)C(Cc4ccco4)NC3=O)c3ccccc3)C(=O)N2C1C(=O)O (stereo not drawn) | Escherichia coli | broth microdilution | BW25113, Mueller-Hinton broth | together with: CCCP 50 µg/mL | 1.56 µg/mL |
| LSTFFRLFN | Streptococcus gordonii | broth microdilution | peptide, ATCC 10558 | 24 h, 37 °C, planktonic, anaerobic | > 256 µg/mL |
| plantazolicin | Streptococcus pyogenes | broth microdilution | M1 | 12 h, 37 °C | > 48 µM |
| CC1(C)SC2C(NC(=O)C(NC(=O)C3=C(O)C4CCCN4C3=O)c3ccccc3)C(=O)N2C1C(=O)O (stereo not drawn) | Escherichia coli | broth microdilution | BW25113, Mueller-Hinton broth | together with: CCCP 50 µg/mL | 25 µg/mL |

A few entries again:
| Substance | organism | assay | system | conditions | MIC |
| --- | --- | --- | --- | --- | --- |
| Cc1cc(C)n(C(N)=S)n1.Cc1ccc(C(C)C)cc1.[Cl][Ru][Cl] | Proteus vulgaris | broth microdilution | ATCC 8427 | 24 to 48 h, 37 °C | > 1000 µg/mL |
| RXRRXRRXRRXRXB (PNA conjugate) | Streptococcus pyogenes | broth microdilution | peptide | 0.02% acetic acid, 0.4% BSA | 125 µM |
